Results gathered from unrelated publications.
Parts stem from different laboratories: compare values within a part only.
UniProt Q9BUB5, sequence (whole entry, looked up): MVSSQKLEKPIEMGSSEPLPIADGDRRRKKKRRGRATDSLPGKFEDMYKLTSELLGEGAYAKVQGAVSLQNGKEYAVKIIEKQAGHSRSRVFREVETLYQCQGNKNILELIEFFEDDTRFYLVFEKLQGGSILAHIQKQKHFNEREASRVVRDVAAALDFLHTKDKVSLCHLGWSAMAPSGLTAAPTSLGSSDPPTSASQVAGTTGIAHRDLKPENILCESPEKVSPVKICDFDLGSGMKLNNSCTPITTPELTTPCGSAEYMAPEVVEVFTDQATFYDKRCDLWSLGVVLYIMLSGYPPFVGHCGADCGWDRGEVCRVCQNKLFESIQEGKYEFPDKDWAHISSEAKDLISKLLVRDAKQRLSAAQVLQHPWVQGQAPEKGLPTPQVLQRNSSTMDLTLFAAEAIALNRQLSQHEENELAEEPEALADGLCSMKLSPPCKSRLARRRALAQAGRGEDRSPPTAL

Set 1 — method: RNA Bind-n-Seq; molecule type: RNA; medium: in vitro; concentration: 20 nM; notes: 6-mer, flanks averaged, single round; with: 150 mM LiCl; baseline: input library; direction: higher = stronger binding
Target: TAR DNA-binding protein 43, full length, His tag (TARDBP, Homo sapiens, UniProt Q13148, residues 1-414)
Oligonucleotide | 6-mer enrichment (R)
GUGAGG | 1.45
GCAUAU | 0.933
AAGCUC | 0.823
CAAAGA | 0.808
CGCGAU | 0.858
GGUACA | 0.917
ACGCAG | 0.874
GAUUGU | 1.04

Set 2 — method: RNA Bind-n-Seq; molecule type: RNA; medium: in vitro; concentration: not given; baseline: input RNA pool; direction: higher = stronger binding
Target: RING finger protein unkempt homolog, zinc fingers 1-6, GST-SBP tag (UNK, Homo sapiens, UniProt Q9C0B0, residues 30-357)
Notes: RNA with constant flanks, human and mouse sites, ends assumed
Shared flanks, not repeated: GGGAGUUCUACAGUCCGACGAUC … CAACAGAGGAUUGAGCAUCA
Construct (chain): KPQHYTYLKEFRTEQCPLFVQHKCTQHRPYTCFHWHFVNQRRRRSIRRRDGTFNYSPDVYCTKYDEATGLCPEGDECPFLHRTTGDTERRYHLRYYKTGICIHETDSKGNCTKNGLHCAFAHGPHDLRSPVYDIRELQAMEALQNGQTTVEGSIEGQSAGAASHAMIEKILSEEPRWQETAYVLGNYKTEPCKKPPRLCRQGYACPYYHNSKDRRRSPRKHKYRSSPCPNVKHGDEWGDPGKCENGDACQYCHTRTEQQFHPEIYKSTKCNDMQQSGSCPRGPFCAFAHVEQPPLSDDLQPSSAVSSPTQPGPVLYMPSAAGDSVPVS
Oligonucleotide | bound/input enrichment [ratio]
CAAAAGUGAGGUUUUGUAGUGGGACCAGAAAUUACUAAGCCCACACCCCCUCCCUAACCCCAAUUCUGCUGCAUGGGAAGUUCUCCACCUGCUGCCAAGGCAGAGCUCCUGGUCUCCCAU | 0.225
AAGAAACAAAUCAUAUUGUGUAUGGAAGAAUUAGAACACUCUCCAGAUACAAGCUUUGAAAGAGAUGUGGUGUGUGAAGAUGAAAGUGCUUUUUGUUUAUCACUGGAGAACAUUGCAACA | 0.166
GCCAAUCCAGGUACAAACUGGGGGGAGACUUUAAAACCUGGCCCCCAACAGAACUGGGCUAGCAAACCCCAAGACAACAAUGUGAGUAACUGGGGAGGAGCUGCUUCUGUGAAACAGACA | 0.213
AAUGCAAAAGGCUUGGCUGGAAUAUCAGGAGAAAGGAUUUGGGUGGAACUGAAAAAAAUUCUUGUUGGUAACCAUGUAAAUCAUUUGAUUCACCUUAUCUAUGAUCUUGAUGUGGCUCCU | 0.189
AACCCAUGGCUGCUUUGUGUCACCUCAGUGACUUACAGUCCCCCUUGGCAUUUAGUUGGUACUAGAGCCAGUCAUCCUUAACAAAUCUUUUCACAUUUUAUUUCUUUCACAUGUAGUCAU | 9.75
AGUAUCUACCUGCUGUCACGGCACUGUCCCUGUCAACUUUGUGUAGGGACGUGUGAGGGAUAUAGGGUCCCUCUGACACCUGCACACUGUCCAGGUGGUGAGCCAUCUGCUUCAGCACGU | 0.0503
ACAUUUAAGGAUUUUGUUCUUCAUCCAAGAAGUCACAAAUCAAGAGUUAAAGGUUAUCUGAGACUAAAAAUGACUUAUUUACCUAAAACCAGUGGCUCAGAAGAUGAUAAUGCAGAACAG | 0.216
CCUGUCAUUCACAACGGAAGCCAAGGAACAGGAACAAAUGGUUCGGAAAUCAGUGAUAGUGAUUAUCAGGCAGAAUACCCUGAUGAGUAUCAUGGCGAGUACCAGGAUGACUACCCCAGA | 0.127

Set 3 — method: aptamer microarray, sandwich; molecule type: DNA with 2'F-ANA; medium: in vitro; concentration: 200 nM; with: Cy3 exosite-II aptamer, 400 nM; direction: higher = stronger binding; oligonucleotide: GGTTGGTGTGGTTGG
Target: Prothrombin, mature alpha-thrombin (F2, Homo sapiens, UniProt P00734)
Notes: whole 15-mer aptamer, many near background
Modification | mean fluorescence intensity [a.u.]
2'F-ANA at 1 5 6 7 13 15 | 47
2'F-ANA at 1 3 7 10 11 12 | 110
2'F-ANA at 2 3 6 7 9 11 12 13 14 15 | 271
2'F-ANA at 1 3 4 5 8 10 12 15 | 59.5
2'F-ANA at 2 6 7 11 13 14 15 | 104
2'F-ANA at 1 2 4 5 6 7 9 10 11 12 15 | 59.2
2'F-ANA at 2 3 4 7 10 11 12 | 370
2'F-ANA at 1 2 7 8 12 13 14 15 | 81.1

Mixed results
SMILES | target | test | setting | scale | endpoint | value
O=C(Nc1cccc(Nc2nccc(Nc3cccc(C(F)(F)F)c3)n2)c1)C1CC1 | MAP kinase-interacting serine/threonine-protein kinase 1 (MKNK1, Homo sapiens, UniProt Q9BUB5) | enzyme activity, inhibitor | 0.5 µM | baseline: control | remaining activity | 91%
